Measurements from different studies.
Every numbered part comes from another study and shows a few of its results, in no order. Substitutions count along the parent as printed.
Chain of UniProt Q9C0B0 (30-357, looked up): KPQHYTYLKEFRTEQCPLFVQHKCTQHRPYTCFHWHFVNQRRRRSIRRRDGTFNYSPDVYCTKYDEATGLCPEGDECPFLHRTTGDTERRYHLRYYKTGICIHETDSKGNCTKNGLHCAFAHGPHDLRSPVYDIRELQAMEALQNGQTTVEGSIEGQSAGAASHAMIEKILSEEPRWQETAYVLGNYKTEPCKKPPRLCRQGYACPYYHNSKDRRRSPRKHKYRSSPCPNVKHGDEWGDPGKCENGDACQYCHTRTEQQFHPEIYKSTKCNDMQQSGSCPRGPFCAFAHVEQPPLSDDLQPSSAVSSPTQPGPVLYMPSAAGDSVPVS

Series 1
Target: RNA binding protein fox-1 homolog 2, RRM domain, GST-SBP tag (RBFOX2, Homo sapiens, UniProt O43251-10, residues 100-194)
Technique: RNA Bind-n-Seq
Molecule type: RNA
Matrix: in vitro
Tested at: 365 nM
Setting: natural RNA segment, single round, ends assumed
Reference: no-protein control
Direction: higher = stronger binding
Shared flanks, not repeated: GGGAGUUCUACAGUCCGACGAUC … UGGAAUUCUCGGGUGCCAA
Residues (chain): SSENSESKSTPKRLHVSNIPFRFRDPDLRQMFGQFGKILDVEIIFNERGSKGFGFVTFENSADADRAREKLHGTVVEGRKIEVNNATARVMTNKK
Strand	RBNS enrichment (R)
CAAGGUCCAUGUUUUUCUGGCUCUUCCUGCACACUCAUCCCUAGAUUAUGAGCGUUAAUGUACGAAAUGUGCAGAGCAAAUUGAGGCCAACUGUGGCAUCAAUACUGCAA	0.381
CCAGUGCCCACCCGUCCACGUUGCUGACAUUGCCACGCUUUGAGGUGUGGUGGUCGCUGGGACCCGUGCCGUGACCCCUAUUUAGCUGUGUUUUGGACUCCGUGUCUUCA	0.324
UAGGGCACAAGCCAAGUCUUCAUGCCUUUGGGAAACAUCUGUCGGCCUCCCCACUCUGGUGUCUAUGACUGGCUCCUCAUACCACUGUUUUCCUGACUUCCAGCCUUGCC	0.207
GAGAAAGGGCUGGAGGAUGCCCCCCACAUACUGCCACUAUUUAUUGUGGGCCCUGGAGGCUCCCUGCAUUGGAGGAAGGGCAGCUCAGCAGCUCAGGACCCUUUCCCUUA	1.25
GCAAGAUGAUGAGCACAGAGUGAGACCUUUAACAGGAUGGCGGAGGGAAAGGUGUUUGCUGGAGUGACUUCCGUGCAGAGUGGUCUAUAGAGAAACUACAGCUCUGCCCA	1.93
UACAAACAAACACAUGGGGAGACUGAAUGAGGAUCAUGAAUACAGCGAAGAGAUCCCUGAAAAGCGGGAGAGGCUGUGUCUGCAGUGUGCAGACUGUGACCCUCGUGUUU	0.417
CCACGCACACCCCUACCCCUCUGUGAGGAGCUGUGGGAAGUGUGGGUUUGUCUCCAGAACAGAAGAGAAUGAUGGAUAUUCUGGCUCUGGGGCCCUCUCCACCACCACUC	0.616
GACCAUAUUUUCUCCACUGUCACCUAGACACUUAUGGGUUAGUGUCCCUUCCAUCUGCCUGGUGCAGGAAGCAGGGCCGUCAUGCCAACGCGCCCAGUCCAGGAUCUGCC	0.232

Series 2
Target: Ras GTPase-activating protein-binding protein 1, C-terminal RGG region (G3BP1, Homo sapiens, UniProt Q13283)
Chain of UniProt Q13283 (whole entry, looked up): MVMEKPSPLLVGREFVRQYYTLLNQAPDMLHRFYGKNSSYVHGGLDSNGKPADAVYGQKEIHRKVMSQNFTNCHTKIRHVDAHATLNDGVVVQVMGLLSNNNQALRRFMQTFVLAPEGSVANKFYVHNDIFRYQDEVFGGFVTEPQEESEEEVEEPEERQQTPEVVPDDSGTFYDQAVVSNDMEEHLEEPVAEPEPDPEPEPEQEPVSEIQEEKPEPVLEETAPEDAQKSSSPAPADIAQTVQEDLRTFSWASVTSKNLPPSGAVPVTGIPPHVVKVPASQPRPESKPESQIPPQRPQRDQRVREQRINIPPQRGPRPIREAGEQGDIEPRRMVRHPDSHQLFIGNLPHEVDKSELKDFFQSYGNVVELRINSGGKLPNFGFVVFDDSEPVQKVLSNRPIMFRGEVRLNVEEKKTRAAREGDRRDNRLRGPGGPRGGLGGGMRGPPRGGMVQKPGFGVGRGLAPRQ
Technique: RNA Bind-n-Seq
Molecule type: RNA
Matrix: in vitro
Tested at: 1 µM
Setting: whole 134-nt RNA, ends assumed
Added: 150 mM KCl
Reference: input library
Direction: higher = stronger binding
Shared flanks, not repeated: GGGAGUUCUACAGUCCGACGAUC … UGGAAUUCUCGGGUGUCAAGG
Strand	log2 enrichment
CUCAAGUCCUGUGCUACACAUCGUAUGUACCGAAUCGGGUUUGGGAGGGUGGGAAAGUAUUAUGUUACGCCGUUCGGAUCUGCACUUCCA	2.21
AAGUCCUGUGCUACACAUCGUAUGUACCGAAUCGGGUUUUUGGGAAAGGGUUUGGGAAAGUAUUAUGUUACGCCGUUCGGAUCUGCACUU	1.2
AGUCCUGUGCUACACAUCGUAUGUACCGAAUCGGGUUUUUUUGGGUGGGAAAAAGGGAAAGUAUUAUGUUACGCCGUUCGGAUCUGCACU	0.821
UCCUGUGCUACACAUCGUAUGUACCGAAUCGGGCCCCCCGGGCCCCCCGGGCCCCCCGGAAAGUAUUAUGUUACGCCGUUCGGAUCUGCA	-1.05
UCAAGUCCUGUGCUACACAUCGUAUGUACCGAAUCGGAAAGGUUUGGAAAAAGGAAAGUAUUAUGUUACGCCGUUCGGAUCUGCACUUCC	-1.41
GGGUCUGUUGCAAAUAAAUUCUAUGUUCACAAUGAUAUCUUCAGAUACCAAGAUGAGGUCUUUGGUGGGUUUGUCACUGAGCCUCAGGAG	-1.59
CACAGACAACACGCACCCACACAGCCACAGAGGGAAGGGGUUGGGAUGGGGACAGGGUGCACAGCAGGGCGGGGUAGGACCCCAGCCCCU	-0.148
CACAGACAACACGCACCCACACAGACACAGAGGGAAGGGGUUGGGAUGGGGACAGGGUGCACAGCAGGGCGGGGUAGGUCCCCAGCCCCU	-1.06
GGUGAUGGUCAACAAGCCUCAACUGCCUCUGCUACAACUGCCAAGUUCCCCGCGUCCCACCCUCCUCUAGGUGCUCCAAGGGACCACCGG	-0.259

Series 3
Target: Sal-like protein 4, full length isoform B (SALL4, Homo sapiens, UniProt Q9UJQ4-2, residues 1-616)
Technique: universal PBM
Molecule type: double-stranded DNA, one strand shown
Matrix: in vitro
Tested at: not given
Setting: 8-mer, flanks averaged, mean of replicates
Direction: higher = stronger binding
Strand	E-score
ATTGGGTA	0.0821
CAAGGTCA	-0.0773
CAGCTTGA	-0.0955
CAGATTGG	-0.216
TAACGGCA	-0.0151
AAAGTGGG	-0.0524
TCAGTACA	0.115
AAAGCCAG	-0.226
CTGTGCAC	-0.0546
TCGGAAAA	0.209
CAACGTTG	0.221
ACCTGGAA	0.104
ATGTTTAC	0.139
CTTTATCC	0.0101
ATCGCGTC	-0.118
ATAAAAAC	0.365
CCGGTACC	-0.267
GCGTCTAC	-0.231
ACTTCCTC	-0.208
AAGGGAAT	0.0998
ACGCTCAG	-0.245
ACTGCTAA	0.0108
TAAATTTA	0.366

Series 4
Target: CCND2, cyclin fold, Cln2 fusion (human)
Technique: yeast growth competition, sequencing
Matrix: yeast
Setting: weak parent motif
Reference: not given
Direction: higher = stronger binding
Parent: SLBP docking peptide (human); ARYKRKLLINDFG; partner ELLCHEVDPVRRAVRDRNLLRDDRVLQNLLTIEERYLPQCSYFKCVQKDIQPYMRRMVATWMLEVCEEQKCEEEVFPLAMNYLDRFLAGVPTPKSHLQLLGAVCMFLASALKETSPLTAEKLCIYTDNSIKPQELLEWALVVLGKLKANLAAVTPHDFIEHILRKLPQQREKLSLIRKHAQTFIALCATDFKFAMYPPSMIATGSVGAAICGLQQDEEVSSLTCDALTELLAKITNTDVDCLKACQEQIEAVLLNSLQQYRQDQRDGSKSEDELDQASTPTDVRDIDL
Substitution	normalised enrichment score
I9D	-0.111
I9S	0.783
L8K	-0.211
N10S	0.461
D11V	0.327
A1P	0.0927
A1L	0.344
R2N	0.501
F12D	0.449
Y3W	-0.0665
Y3G	-0.00227
K4W	0.721
K4T	-0.0976
K6D	-0.0822
A1Q	-0.44
D11Y	0.286
L7T	-0.182
L8F	-0.0634
D11W	-0.328
F12T	-0.258
R5I	0.0878
N10K	-0.0422
R2V	0.0794
F12Y	0.407
A1F	-0.0305

Series 5
Target: Histone acetyltransferase KAT6A, both winged helices, GST fusion (KAT6A, Homo sapiens, UniProt Q92794, residues 1-181)
Technique: protein binding microarray
Molecule type: double-stranded DNA, one strand shown
Matrix: in vitro
Tested at: not given
Setting: 8-mer, flanks averaged, mean of 2 arrays, mostly near background
Reference: not given
Direction: higher = stronger binding
Target sequence (chain): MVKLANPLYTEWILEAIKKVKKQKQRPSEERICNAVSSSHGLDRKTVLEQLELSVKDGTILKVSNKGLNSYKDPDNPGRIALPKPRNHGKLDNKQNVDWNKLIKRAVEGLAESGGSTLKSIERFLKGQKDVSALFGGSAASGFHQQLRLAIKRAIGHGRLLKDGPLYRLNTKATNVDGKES
Strand	E-score
GAGGACTC	-0.132
CCCAGCGA	-0.104
ACCGGCAC	0.23
GGTGCTAA	-0.018
GAGAAAGC	0.0303
CCGGGGGA	0.201
GTTGCATA	0.0209
AACGTGAT	0.0138
AATTTCGC	-0.103
GAAAGTCC	-0.0323
GGGGACAA	-0.0344
GGTGTACA	-0.0538
ATCGCACA	-0.0416
CCAGGGAA	-0.0899
CATATTTA	0.0249
GACGACCC	0.014
CGTCTTCA	0.0257
CTAAGGAC	-0.0535
GACGTCTA	-0.0697
CGAGGAGA	-0.153
AATGGTAT	-0.186
CCTTATAG	-0.183
TACCAGTA	-0.218
TACATCCA	-0.204
ATGGTGCG	0.00338

Other studies, line by line
Substance	target	assay	system	setting	how to read	quantity	value
PhoQ, residues 284 288 289 292 302 303 AGCYAI	PhoP, residues 12 14 15 18 19 LWHSL (Escherichia coli, UniProt P23836)	Sort-seq, item: YFP reporter	E. coli	PhoQ-PhoP variant library, added: 10 µM Mg2+	reference: high Mg2+ state, higher = stronger signaling	fold induction	13.6
GGGAGUUCUACAGUCCGACGAUCAGAGCUCACAAACUGAAAGGAAAACUAUUAAAGAGUUUCUAAUAUUAACUAUUAAAAAGCCCGGAAAGAUCCGGACAAUUUUACAAAUGAGCAAUUAAAAAGAAAAGAAAAGGAUCUGGGCAACAGAGGAUUGAGCAUCA	RING finger protein unkempt homolog, zinc fingers 1-6, SBP tag (UNK, Homo sapiens, UniProt Q9C0B0, residues 30-357)	RNA Bind-n-Seq	RNA, in vitro	100 nM, RNA with constant flanks, ends assumed	reference: input RNA pool, higher = stronger binding	bound/input enrichment	0.191 ratio

A few entries again (series 3):
Strand	E-score
CAGCTTGA	-0.0955
AAGGGAAT	0.0998
CAGATTGG	-0.216
ACCTGGAA	0.104
ACGCTCAG	-0.245
GCGTCTAC	-0.231
ATTGGGTA	0.0821
